Measured values of several laboratories.
Parts stem from different laboratories: compare values within a part only. Changes are numbered by the printed parent chain.

Block 1
Target: CEP164, C-terminal peptide (human)
Technique: DHFR complementation, deep sequencing
Medium: yeast
Setting: single substitutions, model-inferred values
Relative to: wild type
Reading: higher = weaker binding
Starting sequence: PDZK1, PDZ domain 2 (human); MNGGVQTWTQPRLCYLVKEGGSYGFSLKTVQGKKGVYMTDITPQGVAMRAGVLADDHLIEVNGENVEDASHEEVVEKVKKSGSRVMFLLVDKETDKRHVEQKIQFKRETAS; partner HNRVKVYRF
| Variant | binding free energy change [kcal/mol] |
| --- | --- |
| R84Q | -0.051 |
| V85W | 1.81 |
| R107M | -0.0764 |
| E73K | 0.218 |
| Q101E | -0.119 |
| H57L | -0.521 |
| N62S | 0.927 |
| K80C | 0.577 |
| V46E | 0.548 |
| Q44K | 0.05 |
| T7P | -0.0534 |
| R107D | -0.0276 |
| E64C | 0.218 |
| V90L | -0.103 |
| G63A | 0.344 |
| G24I | 1.03 |
| V52S | 1.72 |
| L58Q | 0.363 |

Block 2
Target: CCNE1, cyclin fold, Cln2 fusion (human)
Technique: yeast growth competition, sequencing
Medium: yeast
Setting: strong parent motif
Relative to: not given
Reading: higher = stronger binding
Starting sequence: CDC25A docking peptide (human); PPHRRRLLFACSP
| Variant | normalised enrichment score |
| --- | --- |
| A10C | 1.16 |
| P2K | 1.08 |
| R5I | 1.72 |
| R6K | 1.6 |
| S12I | 1.97 |
| P1T | 1.49 |
| L8A | 1.29 |
| A10I | 0.88 |
| L7Y | 0.632 |
| C11M | 1.07 |
| C11A | 1.36 |
| P13Y | 1.31 |
| C11P | 1.28 |
| H3C | 3.8 |
| H3F | 2.2 |
| P13H | 1.14 |
| L8F | 2.4 |
| S12L | 1.68 |
| L7T | 0.939 |
| H3V | 4.17 |
| C11V | 1.74 |
| L7F | 0.768 |
| F9C | 0.56 |
| L8V | 2.46 |
| F9W | 0.912 |

Block 3
Target: ABI1, truncated, D143A, DHFR fusion (Arabidopsis thaliana)
Technique: DHFR PCA, deep sequencing
Medium: yeast
Setting: methotrexate growth selection, single substitutions
Together with: (+)-ABA 0.0091 µM
Relative to: wild-type fitted maximum
Reading: higher = stronger binding
Starting sequence: PYL1, truncated, DHFR fusion (Arabidopsis thaliana); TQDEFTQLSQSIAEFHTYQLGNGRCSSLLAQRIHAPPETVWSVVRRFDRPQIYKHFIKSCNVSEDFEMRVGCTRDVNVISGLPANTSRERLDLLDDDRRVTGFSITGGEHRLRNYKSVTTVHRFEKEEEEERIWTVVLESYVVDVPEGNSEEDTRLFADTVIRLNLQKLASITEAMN; partner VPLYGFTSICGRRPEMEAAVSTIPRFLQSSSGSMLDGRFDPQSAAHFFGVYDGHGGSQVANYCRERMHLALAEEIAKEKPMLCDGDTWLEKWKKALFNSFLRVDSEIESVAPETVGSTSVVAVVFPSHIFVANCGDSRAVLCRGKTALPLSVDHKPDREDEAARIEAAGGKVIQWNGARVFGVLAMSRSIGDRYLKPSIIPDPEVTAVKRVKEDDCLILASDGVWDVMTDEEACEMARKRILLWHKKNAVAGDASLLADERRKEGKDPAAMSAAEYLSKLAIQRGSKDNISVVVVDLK
| Variant | relative binding score [%] |
| --- | --- |
| S63E | 23.2 |
| V43D | 0.286 |
| D65P | 45.2 |
| F56M | -1.68 |
| N61Q | 52.5 |
| S87H | 51.8 |
| L29W | 0.224 |
| N165E | 3.56 |
| T1K | 17.6 |
| E125K | 20.6 |
| S27M | 2.26 |
| F5W | 36.5 |

Block 4
Target: Ras GTPase-activating protein-binding protein 1, full length (G3BP1, Homo sapiens, UniProt Q13283)
Sequence of UniProt Q13283 (whole entry, looked up): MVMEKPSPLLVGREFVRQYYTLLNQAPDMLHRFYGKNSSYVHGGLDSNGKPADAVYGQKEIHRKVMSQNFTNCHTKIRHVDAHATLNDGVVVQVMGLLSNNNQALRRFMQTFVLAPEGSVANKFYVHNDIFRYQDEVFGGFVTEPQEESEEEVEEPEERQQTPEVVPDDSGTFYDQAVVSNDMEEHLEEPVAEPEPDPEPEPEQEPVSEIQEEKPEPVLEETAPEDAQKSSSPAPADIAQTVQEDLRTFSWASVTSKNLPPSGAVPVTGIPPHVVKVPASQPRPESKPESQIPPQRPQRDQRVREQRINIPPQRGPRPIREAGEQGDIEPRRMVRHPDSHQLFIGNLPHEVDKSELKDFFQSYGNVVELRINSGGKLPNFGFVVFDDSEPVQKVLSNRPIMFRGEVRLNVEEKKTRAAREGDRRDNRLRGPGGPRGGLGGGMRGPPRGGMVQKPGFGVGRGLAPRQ
Technique: RNA Bind-n-Seq
Form: RNA
Medium: in vitro
Concentration: 200 nM
Setting: whole 134-nt RNA, ends assumed
Together with: 150 mM LiCl
Relative to: input library
Reading: higher = stronger binding
All molecules: 7-deaza-guanosine replaces G
| Sequence | log2 enrichment |
| --- | --- |
| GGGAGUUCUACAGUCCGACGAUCCUCAAGUCCUGUGCUACACAUCGUAUGUACCGAAUCGGCCGGGGCCGGGGCCGGAAAGUAUUAUGUUACGCCGUUCGGAUCUGCACUUCCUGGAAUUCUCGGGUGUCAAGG | 0.00439 |
| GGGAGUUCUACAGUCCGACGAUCCAAGUCCUGUGCUACACAUCGUAUGUACCGAAUCGGGAGGGUUUUUGGGUUUGGGAAAGUAUUAUGUUACGCCGUUCGGAUCUGCACUUCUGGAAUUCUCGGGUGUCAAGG | -0.551 |
| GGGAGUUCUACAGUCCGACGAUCUCCUGUGCUACACAUCGUAUGUACCGAAUCGGGUUUUUGGGUUUUUGGGGUUUUUGGGGAAAGUAUUAUGUUACGCCGUUCGGAUCUGCAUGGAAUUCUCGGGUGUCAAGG | -0.0608 |
| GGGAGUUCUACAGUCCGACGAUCUGGAGAAGCGCUACCUGGCUGCUCAGCGUGAGGCAACAUCCAUCCAUGACCUCAAUGACAAGCUGGAGAAUGAGCUGGCCAACAAGGAGUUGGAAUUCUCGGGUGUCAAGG | -0.26 |
| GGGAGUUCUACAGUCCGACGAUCUCAAGUCCUGUGCUACACAUCGUAUGUACCGAAUCGGGUGGGUUUGGGAAAGGGAAAGUAUUAUGUUACGCCGUUCGGAUCUGCACUUCCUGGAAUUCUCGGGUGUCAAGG | -0.042 |
| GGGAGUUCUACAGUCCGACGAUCCUGUGCUACACAUCGUAUGUACCGAAUCGGGCCCCCCCGGGGCCCCCCCGGGCCCCCCCGGGAAAGUAUUAUGUUACGCCGUUCGGAUCUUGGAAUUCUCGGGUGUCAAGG | -0.783 |
| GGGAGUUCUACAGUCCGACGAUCCACAGACAACACGCACCCACACAGACACAGAGGGAAGGAGUUGGGAUGGGGACAGGGUGCACAGCAGGGCGGGGUAGGACCCCAGCCCCUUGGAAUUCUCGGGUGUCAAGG | -1.08 |
| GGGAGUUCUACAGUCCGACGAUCUGGGCAUUUUGGUGGAGACGAUGAGCACCAACGACACGAUCGUCAGUGGCACGCUGCCCCAGCGCAUGGCGUCCUGCCUGGAGGUGCUGGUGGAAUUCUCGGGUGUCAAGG | -0.753 |

Block 5
Target: RNA binding protein fox-1 homolog 2, RRM domain, GST-SBP tag (RBFOX2, Homo sapiens, UniProt O43251-10, residues 100-194)
Technique: RNA Bind-n-Seq
Form: RNA
Medium: in vitro
Concentration: 365 nM
Setting: natural RNA segment, single round, ends assumed
Relative to: no-protein control
Reading: higher = stronger binding
| Sequence | RBNS enrichment (R) |
| --- | --- |
| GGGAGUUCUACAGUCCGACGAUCUUGGAUGUGUUUUCUCACCAAGAUGAGCAAAGAAAGGUUUGCACAGAGGAGUGUGAAUGUGUGUUUGUUGCUGGCUGAAUGGCAAUAGAUGUCUAAGGUGGAUUCAGUGUUGGAAUUCUCGGGUGCCAA | 1.21 |
| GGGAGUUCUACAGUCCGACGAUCUUAACUCCAAGUGCCUUUUUGACAGUGACAACAGACAGUCCCUCGCUUUUUGUUGUUGUUGGUUUUCUUAACCCCUUUAAUGGAACUGCCUGGAUUUUAUACAGUUAUUAUGGAAUUCUCGGGUGCCAA | 0.434 |
| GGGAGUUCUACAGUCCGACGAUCUAACUUUGCCCACAUUUGCUUCCGGAAGCAGCGCACAGCUGUCUGUAUGUUUAAAAGAUAGCAUCUAGAAUGAUCACUUGUGCUUAGCGUAGCAUUGUAAGCGCUGAAGUUGGAAUUCUCGGGUGCCAA | 3.33 |
| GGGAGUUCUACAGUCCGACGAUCAUCUGCACAAUUCAGUUUCAGCUCUGGAUUACUUCAGUUGACCUUUGUGAAGGUUUUUAUCUGUGUAGAAUGGGUGUUUGACUUGUUUUAGCCUAUUAAAUUUUUAUUUUUGGAAUUCUCGGGUGCCAA | 0.85 |
| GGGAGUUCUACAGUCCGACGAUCCGGGCAGCCCUGUGAGUUUCCUAUCUGUUCCAGACUAGUAUCGCCAAUCUCUCCCAGCUCUCUUCUUUCCUCCCUGGCCUUUGUCCUGCAGGAGGUAGCAUCACCUCUUGUGGAAUUCUCGGGUGCCAA | 1.03 |
| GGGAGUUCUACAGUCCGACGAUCAGAAUACAAAGUCCCGGGCUGUUAGAGGAGUCCUUUCCUCUCUGCCUGCCCUUUCCUGUCCCUCCCUCGAAUUCUCUCUCCCCGUAAGUGAUGCUGGAAAAGUCAUAGGAUGGAAUUCUCGGGUGCCAA | 0.672 |
| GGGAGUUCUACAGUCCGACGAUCUGAAGCAUGCAAGUAAAGCACUUUUUCUAAUUUAUAUAGAGGUAUCUAAUUAACACAGCACAUUGUACUAAUGACUAGGAGUAGCAGCUUUUUCUUCUCUCCCUCUAUGAUGGAAUUCUCGGGUGCCAA | 35.8 |
| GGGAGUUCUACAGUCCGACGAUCAUACUGGAUUGAAGGAAGGGCUGUCUCCUUUUAACUUCUUGUUGAUAGUUGCAAGUUCUUUAUGCACCUUCUACCCCUUCUGAGCCACUACUAUUCAAGCAGAGAUUUUGUGGAAUUCUCGGGUGCCAA | 0.986 |

Further values, each from its own experiment
| Molecule | target | assay | system | setting | scale | quantity | value |
| --- | --- | --- | --- | --- | --- | --- | --- |
| PhoQ, residues 284 288 289 292 302 303 SCCLKL | PhoP, residues 12 14 15 18 19 SEGLL (Escherichia coli, UniProt P23836) | Sort-seq, refers to: YFP reporter | E. coli | PhoQ-PhoP variant library, together with: 10 µM Mg2+ | relative to: high Mg2+ state, higher = stronger signaling | fold induction | 4.89 |

Repeated from above (block 5):
| Sequence | RBNS enrichment (R) |
| --- | --- |
| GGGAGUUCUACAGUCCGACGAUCAGAAUACAAAGUCCCGGGCUGUUAGAGGAGUCCUUUCCUCUCUGCCUGCCCUUUCCUGUCCCUCCCUCGAAUUCUCUCUCCCCGUAAGUGAUGCUGGAAAAGUCAUAGGAUGGAAUUCUCGGGUGCCAA | 0.672 |
| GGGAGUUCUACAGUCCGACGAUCUUGGAUGUGUUUUCUCACCAAGAUGAGCAAAGAAAGGUUUGCACAGAGGAGUGUGAAUGUGUGUUUGUUGCUGGCUGAAUGGCAAUAGAUGUCUAAGGUGGAUUCAGUGUUGGAAUUCUCGGGUGCCAA | 1.21 |
| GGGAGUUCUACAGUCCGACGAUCAUACUGGAUUGAAGGAAGGGCUGUCUCCUUUUAACUUCUUGUUGAUAGUUGCAAGUUCUUUAUGCACCUUCUACCCCUUCUGAGCCACUACUAUUCAAGCAGAGAUUUUGUGGAAUUCUCGGGUGCCAA | 0.986 |
| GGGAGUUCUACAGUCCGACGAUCUUAACUCCAAGUGCCUUUUUGACAGUGACAACAGACAGUCCCUCGCUUUUUGUUGUUGUUGGUUUUCUUAACCCCUUUAAUGGAACUGCCUGGAUUUUAUACAGUUAUUAUGGAAUUCUCGGGUGCCAA | 0.434 |
